Experimental data gathered from unrelated publications.
A part holds a random share of what one study measured.

Block 1 — method: RNA Bind-n-Seq; molecule type: RNA; matrix: in vitro; concentration: 365 nM; reference: no-protein control; direction: higher = stronger binding
Target: RNA binding protein fox-1 homolog 2, RRM domain, GST-SBP tag (RBFOX2, Homo sapiens, UniProt O43251-10, residues 100-194)
Notes: natural RNA segment, single round, ends assumed
Shared flanks, not repeated: GGGAGUUCUACAGUCCGACGAUC … UGGAAUUCUCGGGUGCCAA
Construct (chain): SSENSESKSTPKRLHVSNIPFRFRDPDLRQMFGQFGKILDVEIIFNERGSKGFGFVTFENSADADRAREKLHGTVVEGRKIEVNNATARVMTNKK
Sequence | RBNS enrichment (R)
AAAGCCCCUAUGGCUAUAACUUUAAAUAAACUAAACCAAAAAUGUUAUUGAUGUUUUAUAUAGAGAGUAGGAUCAUUAGUUUUUGUUACUGUAAUGUUUGAUGUCUCAAA | 0.608
UGCUCUGUAGUUUAUGCCAAGACCACAAUGACUCUUUACCCCAAGAAAGUCUCUUGACUUAAGUUCUGAGACUCCAAAGACUGCACAUAAGUUUUAGACAUACAAGUGUC | 0.403
GUCAAUAAAGAUAGUUCAAGGCCAGCUUGGACUAUAUGAUAUGACUGCCCAAUUUUAAAGUUAUUCUUUUUGGGAGUGAGACAGGAUUAACUAAACAAGUUUGUGUUUUU | 0.665
GUCCAAGAGUAGCCUGUGGAAUCUGAUCAGUUACUUUAAAAAAUGACUCCUUAUUUUUUAAAUGUUUCCACAUUUUUGCUUGUGGAAAGACUGUUUUCAUAUGUUAUACU | 0.412
UGGGCUCGGGGGUUGGGGGGUGCCGGGGCGAUGCUUCCACCCUGGACUGAGUGUUCGGGGCAGCCUGCUCGGCUGUAUGUUUCUCGCACGCUCACCCGCUUCAGUGCGGC | 1.55
UGGCUUGGUGCUCAAAGGCACUUGCUGCUCUUGCAGAAGGCCAAAAGAUGUGAUUUAGUUCCUAGCCCAUCAGGCAGCUCACAGCCACAUGACUAUAACUCUAGACCCAG | 0.213
CUCAAAAAGUCUGUGGUUCAUUUCCAGUAUUGUGAAUAUUUAGUUUAUGUGGCCGUUUCUUUGUUUCUUUGAACAGUGGGAUUUUCAGUGAAAAAGUACCCUCUUUUUCA | 1.01
UUUCAUGGCCCUUUAUCCUAAUAUUCAAGUACUGGAGAGACCCAGAAGUGUUCCAUCCUGAGCGAUUUCUGGACAGCAGUGGAUAUUUUGCCAAGAAGGAAGCUUUGGUU | 0.326

Block 2 — method: RNA Bind-n-Seq; molecule type: RNA; matrix: in vitro; concentration: 200 nM; notes: whole 134-nt RNA, ends assumed; with: 150 mM LiCl; reference: input library; direction: higher = stronger binding; all molecules: 7-deaza-guanosine replaces G
Target: Fragile X messenger ribonucleoprotein 1, C-terminal low-complexity region (Fmr1, Mus musculus, UniProt P35922)
Shared flanks, not repeated: GGGAGUUCUACAGUCCGACGAUC … UGGAAUUCUCGGGUGUCAAGG
Sequence | log2 enrichment
UGGGAGGUGGAUUUUGUUUAUUUUUUUAGCUCAUUUCCAGGGGUGGGAAUUUUUUUUUAAUAUGGGUCAUGAAUAAAGUUGUUUUUGAAA | 0.622
CACAGACAACAUGCACCCACACAGACACAGAGGGAAGGGGUUGGGAUGGGGACAGGGUGCACAGCAGGGCGGGGUAGGACCCCAGCCCCU | -0.771
UGUGCUACACAUCGUAUGUACCGAAUCGGGGUUUUUUUGGGGAAAAAAAGGGGAAAAAGGGGAAAGUAUUAUGUUACGCCGUUCGGAUCU | -1.57
CUCAAGUCCUGUGCUACACAUCGUAUGUACCGAAUCGGAAAGGAAAGGGAAAGGAAAGUAUUAUGUUACGCCGUUCGGAUCUGCACUUCC | -0.0825
GUCCUGUGCUACACAUCGUAUGUACCGAAUCGGUUUUUUGGUUUUUUGGUUUUUUGGGGAAAGUAUUAUGUUACGCCGUUCGGAUCUGCA | -1.52
UGGCCCUGGUGGCAUGCGGGGAGGAAGAGGUGGCCUCAUGGAUCGUGGUGGUCCCGGUGGAAUGUUCAGAGGUGGCCGUGGUGGAGACGG | -0.36
CCUGUGCUACACAUCGUAUGUACCGAAUCGGGGAAAGGGGAAAAAGGGGAAAAAAAGGGGAAAGUAUUAUGUUACGCCGUUCGGAUCUGC | 1.08
AAGUCCUGUGCUACACAUCGUAUGUACCGAAUCGGGGUUUGGGGUUUGGGUUUGGGGAAAGUAUUAUGUUACGCCGUUCGGAUCUGCACU | -0.678

Block 3 — method: RNA Bind-n-Seq; molecule type: RNA; matrix: in vitro; concentration: not given; reference: input RNA pool; direction: higher = stronger binding
Target: RING finger protein unkempt homolog, zinc fingers 1-6, GST-SBP tag (UNK, Homo sapiens, UniProt Q9C0B0, residues 30-357)
Notes: RNA with constant flanks, human-mouse chimeric sites, ends assumed
Shared flanks, not repeated: GGGAGUUCUACAGUCCGACGAUC … CAACAGAGGAUUGAGCAUCA
Target sequence (chain): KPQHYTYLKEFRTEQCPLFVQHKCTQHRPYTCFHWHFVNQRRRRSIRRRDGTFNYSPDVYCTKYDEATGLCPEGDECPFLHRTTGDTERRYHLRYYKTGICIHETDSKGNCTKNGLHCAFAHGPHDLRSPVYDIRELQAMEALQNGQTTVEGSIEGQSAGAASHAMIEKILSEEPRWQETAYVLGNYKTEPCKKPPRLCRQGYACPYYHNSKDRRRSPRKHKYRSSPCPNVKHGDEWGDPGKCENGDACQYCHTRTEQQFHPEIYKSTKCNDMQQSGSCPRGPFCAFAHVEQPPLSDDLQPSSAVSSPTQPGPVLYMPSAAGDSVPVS
Sequence | bound/input enrichment [ratio]
AUAGAUGAAAUUGAUGUGGACCAGGAAGGAAUUGCAGAAAUGAUCCUGGAUGAAAAUGCUAUUGCUCAAGUUCCACGCCCUGGCACAUCUUUGAAGCUCCCUGGCACUAACCAAACAGGA | 0.225
ACAGUUAUACACUGUUGUUUCAUUUUCAUAUAUUCUUGUAGUGUCUGCUUGCCUGUGACUUCUGGUAAAAUAAAAUAAGCCUUUGAAUUAGCAUGCUCAUGGUAUUUAACAUUUUCUAAA | 1.15
CGCUGGCGUUGAACUGUGGACUCUGAUGGCCUCCAUCUCUCAGGCACGUGUGCCUUCUCUUAGUCCCUGUUUUCGGGAUGUUAUGAAUCUCAGUACUGUGGUUUGAAAGCAGUUAUGUUG | 0.243
GGUGGGGUGGUCAUUGCCGUUUGAGCUCUGCUGAUUCAUGAGUCGCCCAUUCAGAACUCGUGUAGGGUUGACAAUGUGGGGGGGUGGGGGAUCCAGCUUAUUCUUUUAUUUUCAAGUCCA | 0.958
CAGUCCCCGUGUCCCAGUGCAGGACGAUGUGAACAAAAACUCAAAGCGGCCCUUUCUCUGUAGUUGAUGAUUCUCGAAAUGUGCUAUUAUUGUUUGUCUUUUUUUUUUUUUUUUUAAAGA | 0.931
CUUCGGAAAAAAAAAUUACCUUUUCUGACAGUGCUUUAUGGAGUAAAGAUCCACGUUCAAGCUCAAAGAGCAAAGGCUUUGCACGGAGCUCAAACAUCUGAUGAAGAAAGAUUUCUGAGA | 0.0884
UUGCUACUGACUCCCUGGGUCAAGUUCCUGUGGGAAUCAUACAGGCAGUGUUUGGACCUUCUUCGAAACAAUUCUAGAGUAGAGCGCCUUUACCAUGAUAUUGCCCAGCAAGCUUUCAAA | 0.179
AACUUCGUGCAUCGGUUUCCCUUUGUAGCUGUUUCAAUUGGCUUUGCUGUGAAUAAAGAGAUGGAGUUUGGAAUUGUGUACAGCUGUGUGGAAGGCAAGAUGUACACCGGCAGGAAAGGG | 0.361

Block 4 — method: protein-binding microarray; molecule type: double-stranded DNA, one strand shown; matrix: in vitro; concentration: not given; direction: higher = stronger binding
Target: Myc proto-oncogene protein, bHLH-zipper, MAX partner unstated (MYC, Homo sapiens, UniProt P01106, residues 368-449)
Chain of UniProt P01106 (368-449, looked up): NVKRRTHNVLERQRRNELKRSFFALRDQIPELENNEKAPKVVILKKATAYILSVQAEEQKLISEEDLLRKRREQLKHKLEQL
Notes: k-mer, scored over probes, only values ≥0.25
Sequence | E-score
ACGCTACG | 0.31
CACGTTCA | 0.274
GGGGAGCA | 0.267
CACGAGGC | 0.473
AACGCATG | 0.462
CGTGGTTC | 0.381
ATGCGTAC | 0.348
CGCGGCCA | 0.293
CACGTGAA | 0.457
CAGCGTGC | 0.409
ACGCCCCG | 0.309
CAGATGGC | 0.263
ATGCGTTA | 0.27
ACGTGTAC | 0.399
TGCATGCA | 0.339
ACCAGGTG | 0.29
CGCGAGGC | 0.299
CGTGGATC | 0.31
CCACCTGC | 0.387
CATGCGCG | 0.411
